Experimental data of several laboratories.
Each line is one published result; not all experiments were run side by side. ± marks the error that the study gave.
Tumor necrosis factor receptor superfamily member 9/Nectin-4: Tumor necrosis factor receptor superfamily member 9/Nectin-4 (Homo sapiens, UniProt Q07011+Q96NY8)

O=C(Nc1ccn(Cc2ccc(O)cc2C(F)(F)F)n1)c1c(F)cccc1F — EC50 (Potassium voltage-gated channel subfamily KQT member 2 (KCNQ2, Homo sapiens, UniProt O43526); channel activity, agonist; cells overexpressing channel): > 10000 nM
CCc1nccnc1CC — EC50 (OR5K1 (Homo sapiens, UniProt Q8NHB7, A2T/I280V/T15M/V39I/Y193C); cAMP, agonist; HEK293 transfected with OR5K1): 492000 ± 15400 nM
CCCC[C@@H]1NC(=O)[C@H](Cc2ccc(O)cc2)NC(=O)[C@@H]2CCCN2C(=O)[C@H](CC(=O)O)NC(=O)[C@H](C)NC(=O)[C@H](Cc2ccccc2)NC(=O)[C@@H]2CSCCC(=O)N3CN(CN(C3)C(=O)CCSC[C@@H](C(=O)N[C@@H](C)C(N)=O)NC1=O)C(=O)CCSC[C@H](NC(C)=O)C(=O)N[C@@H](CC(C)(C)C)C(=O)N1CCC[C@H]1C(=O)N[C@@H](CCC(=O)O)C(=O)N[C@H](CCCCNC(=O)CCc1cn(CC(=O)N[C@H]3CSCCC(=O)N4CN5CN(C4)C(=O)CCSC[C@H](NC(=O)[C@@H](CC(=O)O)NC(=O)[C@H](Cc4cccc6ccccc46)NC(=O)[C@@H]4CCCN4C3=O)C(=O)N[C@@H](CCSC)C(=O)N[C@@H](CCCCNC(=N)N)C(=O)N[C@@H](CC(=O)O)C(=O)N[C@@H](Cc3c[nH]c4ccccc34)C(=O)N[C@@H](CO)C(=O)N[C@@H]([C@@H](C)O)C(=O)N3CCC[C@H]3C(=O)N3C[C@H](O)C[C@H]3C(=O)N[C@@H](Cc3c[nH]c4ccccc34)C(=O)N[C@H](C(N)=O)CSCCC5=O)nn1)C(=O)N1CCC[C@H]1C(=O)N[C@@H](Cc1ccc(O)cc1)C(=O)N2 — EC50 (Tumor necrosis factor receptor superfamily member 9/Nectin-4; reporter gene, agonist; HT-1376 coculture with reporter cells): 1.14 nM
CCCCC[C@H](O)/C=C/[C@H]1C(=O)C[C@H](O)[C@@H]1C/C=C\CCCC(=O)O — EC50 (Prostaglandin D2 receptor (PTGDR, Homo sapiens, UniProt Q13258, R332A); agonist): 126 nM
CCCC[C@@H]1NC(=O)[C@H](Cc2ccc(O)cc2)NC(=O)[C@@H]2CCCN2C(=O)[C@H](CC(=O)O)NC(=O)[C@H](C)NC(=O)[C@H](Cc2ccccc2)NC(=O)[C@@H]2CSCCC(=O)N3CN(CN(C3)C(=O)CCSC[C@@H](C(=O)N[C@@H](CNC(=O)CCc3cn(CCOCCOCCOCCOCCOCCOCCOCCOCCOCCOCCOCCOCCC(=O)NCCC(=O)N(C)CC(=O)N(C)CC(=O)N(C)CC(=O)N(C)CC(=O)N(C)CC(=O)N(C)CC(=O)N(C)CC(=O)N(C)CC(=O)N(C)CC(=O)N(C)CC(=O)NCCCC[C@@H]4NC(=O)[C@H](Cc5cccc6ccccc56)NC(=O)[C@@H]5CCCN5C(=O)[C@@H](NC(C)=O)CSCCC(=O)N5CN6CN(C5)C(=O)CCSC[C@H](NC4=O)C(=O)N[C@@H](CCSC)C(=O)N[C@@H](CCCCNC(=N)N)C(=O)N[C@@H](CC(=O)O)C(=O)N[C@@H](Cc4c[nH]c5ccccc45)C(=O)N[C@@H](CO)C(=O)N[C@@H]([C@@H](C)O)C(=O)N4CCC[C@H]4C(=O)N4C[C@H](O)C[C@H]4C(=O)N[C@@H](Cc4c[nH]c5ccccc45)C(=O)N[C@H](C(N)=O)CSCCC6=O)nn3)C(N)=O)NC1=O)C(=O)CCSC[C@H](NC(C)=O)C(=O)N[C@@H](CC(C)(C)C)C(=O)N1CCC[C@H]1C(=O)N[C@@H](CCC(=O)O)C(=O)N[C@H](C)C(=O)N1CCC[C@H]1C(=O)N[C@@H](Cc1ccc(O)cc1)C(=O)N2 — EC50 (Tumor necrosis factor receptor superfamily member 9/Nectin-4; reporter gene, agonist; HT-1376 coculture with reporter cells): 1.08 nM
Cn1cc2c(C(=O)O)ccc(NS(=O)(=O)c3ccc(OCC4CCC4)c(Cl)c3)c2n1 — EC50 (5-hydroxytryptamine receptor 2B (HTR2B, Homo sapiens, UniProt P41595); antagonist): > 10000 nM
CNc1ccc([N+](=O)[O-])cc1-n1cnc(-c2ccc(C)cc2)c1 — EC50 (Toll-like receptor 1/2 (Homo sapiens, UniProt O60603+Q15399); reporter gene, agonist; HEK-Blue hTLR2; 24 h): > 100000 nM
O=C(O)CCc1ccc(NCc2cccc(Oc3ccccc3)c2)cc1 — EC50 (Free fatty acid receptor 1 (FFAR1, Homo sapiens, UniProt O14842); agonist, cell-based): 2530 nM
Cc1nccnc1C — EC50 (uncharacterized protein (Vulpes vulpes, UniProt A0A3Q7SVK8); cAMP, agonist; HEK293 transfected with uncharacterized protein): 770000 ± 354000 nM

For quick reference, copied from above:
O=C(O)CCc1ccc(NCc2cccc(Oc3ccccc3)c2)cc1 — EC50 (Free fatty acid receptor 1 (FFAR1, Homo sapiens, UniProt O14842); agonist, cell-based): 2530 nM
